Results from different studies.
Numbered parts are unrelated; each lists some results of a single study.

Sample 1
Target: human cyclin A2
Effect on: peptide binding
Technique: competitive growth sequencing
Form: peptide
Organism: Saccharomyces cerevisiae
Strain: cyclin A2-Cln2 fusion strain
Tested at: concentration not given
Notes: peptide tiling library
Reference: unfused Cln2 strain
Direction: direction not given
Sequence | binding score
DGCSPIKNWSPMRL | -0.319
GPPAKRRLELGESGHQ | 2.55
EVTKVRANAFNQELLS | -0.0569
LENIEPLQVSFAVLSS | -0.123
RVSGLLSWTLSRVLWL | 1.21
SPPRGRRLFPPGPAGF | -0.18
VLPGGVPSPGASLTSM | 0.366
DSGFCLDSPGPLDSKE | -0.459
RTSACRSLFGPVDHEE | 1.89

Sample 2
Target: Interferon regulatory factor 3, full length, phosphomimetic (IRF3, Homo sapiens, UniProt Q14653, residues 1-427, S386D/S396D/S398D/S402D/T404D/S405D)
Technique: protein-binding microarray
Form: double-stranded DNA, one strand shown
Matrix: in vitro
Tested at: 2540 nM top
Notes: 60-bp whole probe
Added: salmon DNA 0.4 mg/ml
Reference: random background probes
Direction: higher = stronger binding
Shared flanks, not repeated: GCCTAGCAC … GTCTTGATTCGCTTGACGCTGCTG
Construct (chain): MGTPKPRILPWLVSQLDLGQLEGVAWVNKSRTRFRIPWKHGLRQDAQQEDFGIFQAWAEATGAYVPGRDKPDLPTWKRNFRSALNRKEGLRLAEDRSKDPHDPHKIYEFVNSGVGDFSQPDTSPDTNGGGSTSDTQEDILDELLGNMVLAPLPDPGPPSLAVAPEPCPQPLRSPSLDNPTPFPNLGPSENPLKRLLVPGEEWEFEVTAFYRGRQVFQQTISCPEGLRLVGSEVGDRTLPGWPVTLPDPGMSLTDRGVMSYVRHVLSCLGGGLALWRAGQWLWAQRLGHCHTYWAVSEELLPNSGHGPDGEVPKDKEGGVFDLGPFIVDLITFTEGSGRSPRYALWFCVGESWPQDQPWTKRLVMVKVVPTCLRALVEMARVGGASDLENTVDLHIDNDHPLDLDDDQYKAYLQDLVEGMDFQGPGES
Oligonucleotide | fitted relative affinity [z-score]
GACGATCACAGTCTCGAGACGTGCTAG | 0.399
TTAGGTTTCGACTTTGGGTTAGTGCTA | 3.2
TCACTCATGGCTTTGTAACTGTGCTAG | -0.608
AGGCTCATACATCTGGGTGGGTGCTAG | -0.261
TTAGATATCGCGTATCGATTAGTGCTA | 0.145
CGCCCACTCATGCCTCTTAAGGTGCTA | -0.142
GACGATGTCAGTTTCGAGACGTGCTAG | 2.32
TGTTTTTTGGTTTCTGGTTTGTGCTAG | 3.26
GACGGTTTCCTTTTACTGACGTGCTAG | 10.4

Sample 3
Target: Sal-like protein 4, full length isoform B (SALL4, Homo sapiens, UniProt Q9UJQ4-2, residues 1-616)
Technique: universal PBM
Form: double-stranded DNA, one strand shown
Matrix: in vitro
Tested at: not given
Notes: 8-mer, flanks averaged, mean of replicates
Direction: higher = stronger binding
Construct (chain): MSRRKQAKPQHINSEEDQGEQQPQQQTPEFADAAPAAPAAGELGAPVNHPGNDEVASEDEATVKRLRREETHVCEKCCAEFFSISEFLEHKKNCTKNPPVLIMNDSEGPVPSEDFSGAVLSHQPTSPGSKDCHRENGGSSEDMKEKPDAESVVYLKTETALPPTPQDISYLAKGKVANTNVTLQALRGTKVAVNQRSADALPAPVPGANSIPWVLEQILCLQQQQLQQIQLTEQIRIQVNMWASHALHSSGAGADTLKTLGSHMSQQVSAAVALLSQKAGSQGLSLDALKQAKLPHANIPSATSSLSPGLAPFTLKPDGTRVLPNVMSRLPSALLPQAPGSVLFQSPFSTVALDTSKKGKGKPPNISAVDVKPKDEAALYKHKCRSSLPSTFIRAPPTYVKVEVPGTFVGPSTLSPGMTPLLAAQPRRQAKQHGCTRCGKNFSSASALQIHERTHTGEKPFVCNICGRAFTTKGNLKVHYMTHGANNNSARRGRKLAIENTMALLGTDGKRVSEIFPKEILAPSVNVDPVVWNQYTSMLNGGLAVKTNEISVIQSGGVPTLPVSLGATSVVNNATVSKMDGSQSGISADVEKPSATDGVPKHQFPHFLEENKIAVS
Oligonucleotide | E-score
CAAAGATC | 0.106
CGACGGAA | -0.0752
AGCGCCCG | -0.274
GGATCGCA | -0.119
ACGGAAGT | -0.0202
AAATGTGC | 0.145
ATAAACAC | 0.231
AGTCATGC | -0.188

Other studies, line by line
Molecule | target | test | test system | conditions | how to read | measurement | value
PhoQ, residues 284 288 289 292 302 303 SSCCRF | PhoP, residues 12 14 15 18 19 AGCRL (Escherichia coli, UniProt P23836) | Sort-seq, measured: YFP reporter | E. coli | PhoQ-PhoP variant library, added: 10 µM Mg2+ | reference: high Mg2+ state, higher = stronger signaling | fold induction | 21

Some of these lines once more (sample 3):
Oligonucleotide | E-score
GGATCGCA | -0.119
ACGGAAGT | -0.0202
AAATGTGC | 0.145
